{"data": "Results gathered from unrelated publications", "note": "Each line is one published result; not all experiments were run side by side. ± gives the spread as reported."}
{"Structure (SMILES)": "CC(=O)CCC1C(=O)NC(C(C)C)C(=O)NC(Cc2cccc(O)c2)C(=O)N2CCCC(N2)C(=O)OC(C(C)=CC=CC(=O)N2CCCCO2)CC=CC=CC(O)C(C)C1O (stereo not shown)", "target or system": "hepatitis C virus genotype 2a JFH-1", "assay": "refers to: HCV RNA", "test system": "Huh-7 replicon", "setting": "72 h", "endpoint": "EC50", "value": "89 ± 6 nM"}
{"Structure (SMILES)": "CC(=O)Oc1ccc(Cn2cc(C)c(=O)[nH]c2=O)cc1C1OC(c2ccc(Cl)cc2)=NN1C(C)=O (stereo not shown)", "target or system": "human cytomegalovirus", "assay": "cytopathic effect", "test system": "HEL fibroblasts, AD-169", "endpoint": "EC50", "value": "> 20000 nM"}
{"Structure (SMILES)": "O=C(Nc1cc(F)c(F)c(F)c1)c1ccc(F)c(S(=O)(=O)N2CCC(NC(=O)C3CN(C(=O)CC45CC6CC(CC(C6)C4)C5)C3)CC2)c1", "target or system": "Hepatitis B virus", "assay": "viral replication, qPCR, refers to: HBV DNA", "test system": "HepAD38", "setting": "4 days", "endpoint": "EC50", "value": "440 nM"}
{"Structure (SMILES)": "CC(=O)CCC1C(=O)NC(C(C)C)C(=O)NC(Cc2cc(O)cc(F)c2)C(=O)N2CCCC(N2)C(=O)OC(C(C)=CC=CC(=O)N2CCCCO2)CC=CC=CC(O)C(C)C1O (stereo not shown)", "target or system": "hepatitis C virus genotype 1a H77", "assay": "refers to: HCV RNA", "test system": "Huh-7 replicon", "setting": "72 h", "endpoint": "EC50", "value": "18 ± 2 nM"}
{"Structure (SMILES)": "O=C(Nc1cc(F)c(F)c(F)c1)c1ccc(F)c(S(=O)(=O)N2CCC(NC(=O)c3ccc(N4CCN(C(=O)CC56CC7CC(CC(C7)C5)C6)CC4)cc3)CC2)c1", "target or system": "Hepatitis B virus", "assay": "viral replication, qPCR, refers to: HBV DNA", "test system": "HepAD38", "setting": "4 days", "endpoint": "EC50", "value": "930 nM"}
{"Structure (SMILES)": "C=C1C(=O)O[C@H]2C[C@H](C)C(/C=C/C(C)=O)=CC[C@H]12", "target or system": "Punta Toro virus", "assay": "viral replication", "test system": "Vero", "endpoint": "EC50", "value": "> 20000 nM"}
{"Structure (SMILES)": "CC(=O)Oc1ccc(Cn2cc(F)c(=O)[nH]c2=O)cc1C1OC(c2ccc(Cl)cc2)=NN1C(C)=O (stereo not shown)", "target or system": "human cytomegalovirus", "assay": "cytopathic effect", "test system": "HEL fibroblasts, Davis", "endpoint": "EC50", "value": "> 20000 nM"}
{"Structure (SMILES)": "CN(C)CCNC(=O)c1cc(-c2ccccc2)nc2ccccc12", "target or system": "Enterovirus A71", "assay": "cytopathic effect", "test system": "RD, US/AK/16-19516", "endpoint": "EC50", "value": "> 10000 nM"}
{"Structure (SMILES)": "CC(=O)Oc1ccc(Cn2cc(C)c(=O)[nH]c2=O)cc1C1OC(c2ccccc2)=NN1C(C)=O (stereo not shown)", "target or system": "human cytomegalovirus", "assay": "cytopathic effect", "test system": "HEL fibroblasts, Davis", "endpoint": "EC50", "value": "> 100000 nM"}
{"Structure (SMILES)": "O=C(NCc1c(F)cccc1F)c1cn(Cc2ccc(F)cc2)cc(O)c1=O", "target or system": "human cytomegalovirus", "assay": "viral replication, GFP reporter virus", "test system": "HFF", "setting": "168 h", "endpoint": "EC50", "value": "600 ± 150 nM"}
{"Structure (SMILES)": "C=CCc1ccc(OCc2ccccc2)c(OC)c1", "target or system": "Spodoptera frugiperda", "assay": "antifeedant activity, no-choice test", "test system": "larvae, Zea mays", "endpoint": "EC50", "value": "626 µg/mL"}
{"Structure (SMILES)": "O=C(CC12CC3CC(CC(C3)C1)C2)NC12CCC(C(=O)NC3CCN(S(=O)(=O)c4cc(C(=O)Nc5cc(F)c(F)c(F)c5)ccc4F)CC3)(CC1)CC2", "target or system": "Hepatitis B virus", "assay": "viral replication, qPCR, refers to: HBV DNA", "test system": "HepAD38", "setting": "4 days", "endpoint": "EC50", "value": "560 nM"}
{"Structure (SMILES)": "Cc1cn(C2CC(N(C)C)C(CO)O2)c(=O)[nH]c1=O (stereo not shown)", "target or system": "Punta Toro virus", "assay": "viral replication", "test system": "Vero", "endpoint": "EC50", "value": "> 370 nM"}
{"Structure (SMILES)": "CC(=O)Oc1ccc(Cn2cc(F)c(=O)[nH]c2=O)cc1C1OC(c2ccccc2)=NN1C(C)=O (stereo not shown)", "target or system": "human cytomegalovirus", "assay": "cytopathic effect", "test system": "HEL fibroblasts, AD-169", "endpoint": "EC50", "value": "> 100000 nM"}
{"Structure (SMILES)": "O=C1/C(=N\\NC(=S)NN=Cc2cccs2)c2ccccc2N1Cc1ccccc1", "target or system": "respiratory syncytial virus", "assay": "viral replication", "test system": "HeLa", "endpoint": "EC50", "value": "> 4000 nM"}
{"Structure (SMILES)": "C=CCCCCCCCCCOCc1cn(CC2=CC[C@@H]3C(C(=O)OC)=CO[C@@H](OC(C)=O)[C@H]23)nn1", "target or system": "SK-N-SH", "assay": "neuroprotection, MTT", "setting": "0.6 µM, 24 h, with: 250 µM H2O2", "endpoint": "viability", "value": "75.3 ± 0.5%"}
{"Structure (SMILES)": "COc1ccccc1-c1n[nH]c2nc(N[C@H]3CC[C@H](NS(=O)(=O)CC(C)C)CC3)ncc12", "target or system": "Leishmania donovani", "test system": "promastigotes, LdBOB wild type start clone", "endpoint": "EC50", "value": "6.31 nM"}
{"Structure (SMILES)": "O=C(CN1CCN(C(=O)CC23CC4CC(CC(C4)C2)C3)CC1)NC1CCN(S(=O)(=O)c2cc(C(=O)Nc3cc(F)c(F)c(F)c3)ccc2F)CC1", "target or system": "Hepatitis B virus", "assay": "viral replication, qPCR, refers to: HBV DNA", "test system": "HepAD38", "setting": "4 days", "endpoint": "EC50", "value": "570 nM"}
{"Structure (SMILES)": "C/C=C/c1ccc(OCc2ccccc2)c(OC)c1", "target or system": "Spodoptera frugiperda", "assay": "antifeedant activity, no-choice test", "test system": "larvae, Zea mays", "endpoint": "EC50", "value": "4230 µg/mL"}
{"Structure (SMILES)": "O=C(NCc1cc(Cl)ccc1F)c1cn(Cc2ccc(F)cc2)cc(O)c1=O", "target or system": "human cytomegalovirus", "assay": "viral replication, GFP reporter virus", "test system": "HFF", "setting": "168 h", "endpoint": "EC50", "value": "700 ± 190 nM"}
{"Structure (SMILES)": "CCCCCCC(CC=CCCCCCCCC(=O)OCCOCn1cnc2c(=O)[nH]c(N)nc21)OC(=O)CCCCC1SCC2NC(=O)NC21 (stereo not shown)", "target or system": "human cytomegalovirus", "assay": "viral replication, plaque reduction", "test system": "HFF, AD169", "endpoint": "EC50", "value": "70100 nM"}
{"Structure (SMILES)": "CC(=O)Oc1ccc(Cn2nc(C)c(=O)[nH]c2=O)cc1C1OC(c2cccc(Cl)c2)=NN1C(C)=O (stereo not shown)", "target or system": "human cytomegalovirus", "assay": "cytopathic effect", "test system": "HEL fibroblasts, AD-169", "endpoint": "EC50", "value": "> 20000 nM"}
{"Structure (SMILES)": "CC(=NCc1ccccc1)c1c(C)cc(=O)n(O)c1O", "target or system": "Hepatitis B virus", "assay": "viral replication, inhibitor, qPCR", "test system": "HepDES19", "setting": "72 h", "endpoint": "EC50", "value": "22400 nM"}
{"Structure (SMILES)": "O=C(CC12CC3CC(CC(C3)C1)C2)NCCOCC(=O)NC1CCN(S(=O)(=O)c2cc(C(=O)Nc3cc(F)c(F)c(F)c3)ccc2F)CC1", "target or system": "Hepatitis B virus", "assay": "viral replication, qPCR, refers to: HBV DNA", "test system": "HepAD38", "setting": "6 days", "endpoint": "EC50", "value": "460 nM"}
{"Structure (SMILES)": "O=C(Cc1csc2nc(-c3ccc(Br)cc3)cn12)NN=C1CCCC1", "target or system": "Coxsackie B4 virus", "assay": "viral cytopathicity, microscopy", "test system": "Vero", "endpoint": "EC50", "value": "> 100 µg/mL"}
{"Structure (SMILES)": "COC(=O)C1=CO[C@@H](OC(C)=O)[C@@H]2C(Cn3cc(CCCN4C(=O)c5ccccc5C4=O)nn3)=CC[C@H]12", "target or system": "SK-N-SH", "assay": "neuroprotection, MTT", "setting": "0.3 µM, 24 h, with: 250 µM H2O2", "endpoint": "viability", "value": "61.6 ± 0.5%"}
{"Structure (SMILES)": "C[C@@H]1COCCN1c1nc(NCc2cccnc2C(F)(F)F)c2cccnc2n1", "target or system": "Wolbachia pipientis", "assay": "infected cells, high-content imaging", "test system": "C6/36 cells, wAlbB", "endpoint": "EC50", "value": "14.4 ± 3.7 nM"}
{"Structure (SMILES)": "CCCCCCCCCC(=O)OCC1OC(n2cc(C)c(=O)[nH]c2=O)CC1N(C)C (stereo not shown)", "target or system": "Human alphaherpesvirus 1", "assay": "cytopathic effect", "test system": "HEL", "endpoint": "EC50", "value": "> 230 nM"}
{"Structure (SMILES)": "COc1ccc([C@@]23Oc4cc(OC)cc(OC)c4[C@]2(O)[C@H](O)[C@H](C(=O)N(C)C)[C@H]3c2ccccc2)cc1", "target or system": "Hepatitis C virus", "assay": "viral entry, HCV pseudoparticle infection", "test system": "primary human hepatocytes", "endpoint": "EC50", "value": "~5 nM"}
{"Structure (SMILES)": "O=C(NCc1cccc(F)c1F)c1cn(Cc2ccc(F)cc2)cc(O)c1=O", "target or system": "human cytomegalovirus", "assay": "viral replication, GFP reporter virus", "test system": "HFF", "setting": "168 h", "endpoint": "EC50", "value": "670 ± 200 nM"}
{"Structure (SMILES)": "C/C=C/c1ccc(OC(C)=O)c(OC)c1", "target or system": "Spodoptera frugiperda", "assay": "antifeedant activity, no-choice test", "test system": "larvae, Zea mays", "endpoint": "EC50", "value": "< 210 µg/mL"}
{"Structure (SMILES)": "CC(=O)Oc1ccc(Cn2ccc(=O)[nH]c2=O)cc1C1OC(c2ccccc2)=NN1C(C)=O (stereo not shown)", "target or system": "human cytomegalovirus", "assay": "cytopathic effect", "test system": "HEL fibroblasts, Davis", "endpoint": "EC50", "value": "> 100000 nM"}
{"Structure (SMILES)": "Nc1ncnc2c1c(F)cn2[C@@H]1O[C@H](CO)[C@@H](O)[C@H]1O", "target or system": "Trypanosoma evansi", "assay": "parasite growth, resazurin", "test system": "AnTat 3.3", "setting": "48 h plus 24 h resazurin", "endpoint": "EC50", "value": "180 ± 20 nM"}
{"Structure (SMILES)": "CC(=O)Oc1ccc(Cn2cc(C)c(=O)[nH]c2=O)cc1C1OC(c2cccc(Cl)c2)=NN1C(C)=O (stereo not shown)", "target or system": "human cytomegalovirus", "assay": "cytopathic effect", "test system": "HEL fibroblasts, Davis", "endpoint": "EC50", "value": "> 20000 nM"}
{"Structure (SMILES)": "O=C(Nc1cc(F)c(F)c(F)c1)c1ccc(F)c(S(=O)(=O)N2CCC(NC(=O)C3CCN(C(=O)CC45CC6CC(CC(C6)C4)C5)CC3)CC2)c1", "target or system": "Hepatitis B virus", "assay": "viral replication, qPCR, refers to: HBV DNA", "test system": "HepAD38", "setting": "4 days", "endpoint": "EC50", "value": "1100 nM"}
{"Structure (SMILES)": "CC(=O)Oc1ccc(Cn2ccc(=O)[nH]c2=O)cc1C1OC(c2cccc(Cl)c2)=NN1C(C)=O (stereo not shown)", "target or system": "human cytomegalovirus", "assay": "cytopathic effect", "test system": "HEL fibroblasts, Davis", "endpoint": "EC50", "value": "> 100000 nM"}
{"Structure (SMILES)": "CCCCCCCCC(=O)NCc1ccc(O)c(OC)c1", "target or system": "mAb 3-LD3", "assay": "antibody binding, indirect competitive ELISA", "setting": "with: coating antigen hapten 3-OVA", "endpoint": "IC50", "value": "0.00146 µg/mL"}
{"note": "For quick reference, copied from above:"}
{"Structure (SMILES)": "CC(=O)CCC1C(=O)NC(C(C)C)C(=O)NC(Cc2cc(O)cc(F)c2)C(=O)N2CCCC(N2)C(=O)OC(C(C)=CC=CC(=O)N2CCCCO2)CC=CC=CC(O)C(C)C1O (stereo not shown)", "target or system": "hepatitis C virus genotype 1a H77", "assay": "refers to: HCV RNA", "test system": "Huh-7 replicon", "setting": "72 h", "endpoint": "EC50", "value": "18 ± 2 nM"}
{"Structure (SMILES)": "O=C(NCc1c(F)cccc1F)c1cn(Cc2ccc(F)cc2)cc(O)c1=O", "target or system": "human cytomegalovirus", "assay": "viral replication, GFP reporter virus", "test system": "HFF", "setting": "168 h", "endpoint": "EC50", "value": "600 ± 150 nM"}
{"Structure (SMILES)": "CC(=NCc1ccccc1)c1c(C)cc(=O)n(O)c1O", "target or system": "Hepatitis B virus", "assay": "viral replication, inhibitor, qPCR", "test system": "HepDES19", "setting": "72 h", "endpoint": "EC50", "value": "22400 nM"}
{"Structure (SMILES)": "COc1ccccc1-c1n[nH]c2nc(N[C@H]3CC[C@H](NS(=O)(=O)CC(C)C)CC3)ncc12", "target or system": "Leishmania donovani", "test system": "promastigotes, LdBOB wild type start clone", "endpoint": "EC50", "value": "6.31 nM"}
